Measured values collected from several papers.
Every numbered part comes from another study and shows a few of its results, in no order. Changes are numbered by the printed parent chain.
UniProt Q12866, sequence (whole entry, looked up): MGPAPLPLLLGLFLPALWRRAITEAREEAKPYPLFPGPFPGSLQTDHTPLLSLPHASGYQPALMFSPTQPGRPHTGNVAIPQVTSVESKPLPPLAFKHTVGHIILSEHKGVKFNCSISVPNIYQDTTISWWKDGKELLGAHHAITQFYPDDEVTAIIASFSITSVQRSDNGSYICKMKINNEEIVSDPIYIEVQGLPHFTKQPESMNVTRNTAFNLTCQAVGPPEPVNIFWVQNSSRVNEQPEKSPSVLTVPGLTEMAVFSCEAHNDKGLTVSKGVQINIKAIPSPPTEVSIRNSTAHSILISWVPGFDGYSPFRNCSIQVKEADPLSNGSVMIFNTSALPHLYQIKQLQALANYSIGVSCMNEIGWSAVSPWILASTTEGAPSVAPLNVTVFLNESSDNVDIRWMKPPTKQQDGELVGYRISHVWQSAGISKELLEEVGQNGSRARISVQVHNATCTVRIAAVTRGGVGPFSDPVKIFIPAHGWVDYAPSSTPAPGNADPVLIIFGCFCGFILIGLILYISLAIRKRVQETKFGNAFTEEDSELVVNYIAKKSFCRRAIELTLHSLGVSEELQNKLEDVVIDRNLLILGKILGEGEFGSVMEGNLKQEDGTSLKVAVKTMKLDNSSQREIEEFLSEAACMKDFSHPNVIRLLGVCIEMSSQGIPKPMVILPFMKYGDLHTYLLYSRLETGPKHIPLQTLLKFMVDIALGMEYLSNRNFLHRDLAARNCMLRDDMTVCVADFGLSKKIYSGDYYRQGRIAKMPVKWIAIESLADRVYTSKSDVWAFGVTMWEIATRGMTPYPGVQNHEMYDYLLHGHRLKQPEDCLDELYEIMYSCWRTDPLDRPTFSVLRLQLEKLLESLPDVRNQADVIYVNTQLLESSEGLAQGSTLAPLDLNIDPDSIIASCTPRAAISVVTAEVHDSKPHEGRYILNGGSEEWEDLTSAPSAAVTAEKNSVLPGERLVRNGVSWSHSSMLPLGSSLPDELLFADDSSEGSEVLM

Block 1
Target: RING finger protein unkempt homolog, zinc fingers 1-6, SBP tag (UNK, Homo sapiens, UniProt Q9C0B0, residues 30-357)
UniProt Q9C0B0, sequence (30-357, looked up): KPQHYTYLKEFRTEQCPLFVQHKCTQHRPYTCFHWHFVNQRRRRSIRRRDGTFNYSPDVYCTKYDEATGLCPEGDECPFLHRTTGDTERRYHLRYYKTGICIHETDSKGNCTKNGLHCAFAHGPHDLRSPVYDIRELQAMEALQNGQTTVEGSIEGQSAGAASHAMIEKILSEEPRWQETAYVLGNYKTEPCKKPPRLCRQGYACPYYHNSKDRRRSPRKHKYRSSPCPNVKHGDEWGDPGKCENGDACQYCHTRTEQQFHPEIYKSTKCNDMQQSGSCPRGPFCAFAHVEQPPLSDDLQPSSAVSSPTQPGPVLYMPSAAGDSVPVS
Technique: RNA Bind-n-Seq
Form: RNA
Medium: in vitro
Tested at: 100 nM
Notes: RNA with constant flanks, vertebrate orthologous sites, ends assumed
Baseline: input RNA pool
Direction: higher = stronger binding
Measurement: bound/input enrichment
Constant ends, left off below: GGGAGUUCUACAGUCCGACGAUC … CAACAGAGGAUUGAGCAUCA
CACAUCUGGUGAUAUUUGGCCAGGCCUUUCGGCUUAUGAUAAUAGUCCCAGAUCACCCCAUAGUCCUUCACCUAUUGCUACACCCCCUAGUCAGAGUUCAUCUUGCUCUGAUGCUCCCAU: 0.702 ratio
CAGCUGAUUCACUCAUUGGGAGAGCUGCACAUAUAGCUGUUCUGGAUUCGGAAAUAUUUUUAGAGAAAUUCUUUCUGGUUGCUGCCCUCAAAUAUUUCCAUUAGGAUUAAAUGCAUUGGU: 1.36 ratio
GGUUGAUGUUCUGAAGAAUCACUUAGUAAAAGAAGGUCGGGUAGAUGAAGAAAUUGCACUUAGAAUUAUCAAUGAGGGUGCUGCCAUCCUUCGGAGAGAGAAAACCAUGAUAGAAGUAGA: 1.15 ratio
GUCGUCUGACUGGAUGAAGACUGUCCCGAGUUAUAACCAAACUAAUAGCUCCAUGGACUUCAGAAAUUAUAUGAUGAGAGAUGAGAAUCUGGAACCACUGCCCAAAAACUGGGAGAUGGC: 0.353 ratio
UCCUAGCACUUUGAUAAAAAGUGUGGACUGGUUGCUUGUGUUUUCCUUAUUCUUUUUAAUCAGUUUUAUUAUGUAUGCCACCAUUCGAACUGAGAGUAUUCGGUGGCUAAUUCCAGGACA: 0.966 ratio
UUCACCACUCCUGGGUGCAUGAUUGAGGGUGAAGCAUCCACCAGCACUUCAAGGGGUCCAUAGUAUUUUUUUUUUGCUGCCUCAAAGUCCCCAAAGCCUUCGAGCAGAAGUGGCAGUAGA: 1.29 ratio
GCAAAUCCAAUCACUGUGAUAUUUAAAAUAUGCACAGUCCUGAUUCUUUCUCCAUGAUCCUAGUAUUUUUCUAGCUGUAUCUUUGUAUCUCAUACUGUUAUUUAUCAGUUUUGUUCCCCU: 0.654 ratio
CUAGCCUUUCACUUAGGGUCAGCCUCAAAUCUAUAGGAUUUAUGACAAAUGUGUUAUAUCUAGUUGAGUUAAAUAUUUUUAUUAGCCUGUAAAUAAAGAUAGCAUCUCCUACAUUAAAAU: 0.864 ratio

Block 2
Target: CCNF, cyclin fold, Cln2 fusion (human)
Technique: yeast growth competition, sequencing
Medium: yeast
Notes: strong parent motif
Baseline: not given
Direction: higher = stronger binding
Measurement: normalised enrichment score
Starting sequence: CDKN1B docking peptide (human); PSACRNLFGPVDH
F8R: 0.959
L7M: 0.636
C4R: 8.77
R5W: -0.0753
A3V: 8.1
L7Q: 0.0641
A3I: 8.29
G9Q: 3.98

Mixed results
CC(=O)C1=C(C)N(c2cccc(C(F)(F)F)c2)C(=O)N[C@H]1c1ccc(C#N)nc1 — viability (patient-derived normal-adjacent epithelium organoids; 1 µM; baseline: DMSO control): 127%
COc1ccc(Cl)cc1NC(=O)Nc1cc(C)nc2ccccc12 — remaining activity (Tyrosine-protein kinase Mer (MERTK, Homo sapiens, UniProt Q12866); enzyme activity, inhibitor; 0.5 µM; baseline: control): 93.3%

A few entries again (block 1):
CACAUCUGGUGAUAUUUGGCCAGGCCUUUCGGCUUAUGAUAAUAGUCCCAGAUCACCCCAUAGUCCUUCACCUAUUGCUACACCCCCUAGUCAGAGUUCAUCUUGCUCUGAUGCUCCCAU: 0.702 ratio
UUCACCACUCCUGGGUGCAUGAUUGAGGGUGAAGCAUCCACCAGCACUUCAAGGGGUCCAUAGUAUUUUUUUUUUGCUGCCUCAAAGUCCCCAAAGCCUUCGAGCAGAAGUGGCAGUAGA: 1.29 ratio
